Results pooled from the literature.
Numbered parts are unrelated; each lists some results of a single study. Changes are numbered by the printed parent chain.

Series 1 — method: universal PBM; form: double-stranded DNA, one strand shown; matrix: in vitro; tested at: not given; reading: higher = stronger binding
Target: Sal-like protein 4, full length isoform B (SALL4, Homo sapiens, UniProt Q9UJQ4-2, residues 1-616)
Notes: 8-mer, flanks averaged, mean of replicates
Sequence	E-score
TTGCCCAA	0.058
GGGGAGAC	-0.227
CCTCGCTA	-0.171
GGAAATAA	0.306
AGCTTGGC	-0.198
AACTTCAT	0.151
CCAAAGCC	-0.141
GAAATAGC	0.0243
CAGCCGGG	-0.394
CTTGGCCA	-0.179
ATCCCAGC	-0.14
GCAACCCC	-0.269
GACAAGAC	-0.0838
AATAACCG	0.153
GTGCAGTA	-0.0877
GTGTACAC	0.277

Series 2 — target: CCNA1, cyclin fold, Cln2 fusion (human); method: yeast growth competition, sequencing; matrix: yeast; notes: weak parent motif; baseline: not given; reading: higher = stronger binding
Parent: BRCA2 docking peptide (human); PSIKRNLLNEFDR
Substitution	normalised enrichment score
PSIKRNLLNEFCR [D12C]	0.474
PSIKRNLLNEMDR [F11M]	0.272
PSIKENLLNEFDR [R5E]	0.399
PSIKRYLLNEFDR [N6Y]	0.129
PSIKRNLSNEFDR [L8S]	0.512
PWIKRNLLNEFDR [S2W]	0.34
PSIKRNRLNEFDR [L7R]	0.558
PKIKRNLLNEFDR [S2K]	0.512
PSIKRNLNNEFDR [L8N]	0.162
PSIYRNLLNEFDR [K4Y]	0.254
PSINRNLLNEFDR [K4N]	0.286
PRIKRNLLNEFDR [S2R]	0.32
PSIKRNLLEEFDR [N9E]	0.43
PSIKANALNEFDR [R5A L7A]	0.158
PSIKRNLLLEFDR [N9L]	0.603
SSIKRNLLNEFDR [P1S]	0.494
PSIKRNLLNECDR [F11C]	-0.0491
PSIKRNLLNEFDP [R13P]	0.211
PSIKRNLLNEFRR [D12R]	0.379
PSIKRNGLNEFDR [L7G]	0.122
ISIKRNLLNEFDR [P1I]	0.444
PSIKRNLLNEFLR [D12L]	0.0892
PSIKRNLLNEFDF [R13F]	0.414
PSIKRNLLNVFDR [E10V]	0.077
PTIKRNLLNEFDR [S2T]	0.63

Series 3 — method: protein binding microarray; form: double-stranded DNA, one strand shown; matrix: in vitro; tested at: not given; baseline: not given; reading: higher = stronger binding
Target: Histone acetyltransferase KAT6A, winged helix 2, GST fusion (KAT6A, Homo sapiens, UniProt Q92794, residues 85-181)
Notes: 8-mer, flanks averaged, mean of 2 arrays, mostly near background
Target sequence (chain): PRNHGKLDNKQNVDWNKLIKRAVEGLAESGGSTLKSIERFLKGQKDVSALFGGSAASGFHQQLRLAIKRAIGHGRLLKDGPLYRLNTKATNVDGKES
Sequence	E-score
CCACCAAC	0.00692
CGCGCGTA	0.164
CCTAATTA	-0.121
AAATAAAC	0.0116
CTCAGCAA	0.154
ATATCCAT	-0.011
AACACTAG	-0.134
ATATGTTG	-0.147
CTCCTGGC	0.0647
CATCGGCA	0.112
AATCTACG	-0.118
ACTGCAGC	-0.0839
CGTGTTAC	-0.00644
AGATTGCA	0.00534
CTATCCAA	-0.208
ATCGCAAG	0.142
CTGGTATA	-0.153
GAACTAGA	0.207
AGTCTTGA	-0.125
CCGTACGA	-0.129
CGCAATAA	0.0349
TATCGAGA	0.00896
AGATGGTG	-0.0583
CTAGCTCC	-0.114
CAGTCACG	-0.146

Single results of other studies
Substance	target	test	system	setting	scale	endpoint	result
PhoQ, residues 284 288 289 292 302 303 MLMVEA	PhoP, residues 12 14 15 18 19 TTLRV (Escherichia coli, UniProt P23836)	Sort-seq, item: YFP reporter	E. coli	PhoQ-PhoP variant library, added: 10 µM Mg2+	baseline: high Mg2+ state, higher = stronger signaling	fold induction	12.2

A few entries again (series 1):
Sequence	E-score
GGAAATAA	0.306
AGCTTGGC	-0.198
AACTTCAT	0.151
CCAAAGCC	-0.141
GAAATAGC	0.0243
CAGCCGGG	-0.394
CTTGGCCA	-0.179
ATCCCAGC	-0.14
